Experimental data from different studies.
Each numbered part is a random draw from the data of one study; scales do not carry over between parts.

Series 1 — method: protein-binding microarray; form: double-stranded DNA, one strand shown; medium: in vitro; concentration: 250 nM; notes: 60-bp whole probe; together with: salmon DNA 0.4 mg/ml; relative to: random background probes; reading: higher = stronger binding; quantity: log fluorescence; all sequences stand within: GCCTAGCAC … GTCTTGATTCGCTTGACGCTGCTG
Target: Interferon regulatory factor 5, full length, phosphomimetic (IRF5, Homo sapiens, UniProt Q13568-2, residues 1-514, K96S/S451D/S453D/S456D/S462D)
AACTGCTGCCGTCCACCACTGTGCTAG: -0.496 z-score
GACGGACTGGACGTTCGGGACGTGCTA: -0.437 z-score
GAGGATCTCAGTATCGAGACGTGCTAG: 1.51 z-score
CTAATATTCATTTTATTCAAGTGCTAG: 0.887 z-score
GACGATTTCAGGACTGGAGACGTGCTA: 0.335 z-score

Series 2 — method: protein-binding microarray; form: double-stranded DNA, one strand shown; medium: in vitro; concentration: 0.8 µM; notes: whole 60-bp probe, no competitor; reading: higher = stronger binding; quantity: fluorescence intensity
Target: Centromere-binding protein 1, full length, N-terminal tag (CBF1, Saccharomyces cerevisiae, UniProt P17106, residues 1-351)
Sequence of UniProt P17106 (whole entry, looked up): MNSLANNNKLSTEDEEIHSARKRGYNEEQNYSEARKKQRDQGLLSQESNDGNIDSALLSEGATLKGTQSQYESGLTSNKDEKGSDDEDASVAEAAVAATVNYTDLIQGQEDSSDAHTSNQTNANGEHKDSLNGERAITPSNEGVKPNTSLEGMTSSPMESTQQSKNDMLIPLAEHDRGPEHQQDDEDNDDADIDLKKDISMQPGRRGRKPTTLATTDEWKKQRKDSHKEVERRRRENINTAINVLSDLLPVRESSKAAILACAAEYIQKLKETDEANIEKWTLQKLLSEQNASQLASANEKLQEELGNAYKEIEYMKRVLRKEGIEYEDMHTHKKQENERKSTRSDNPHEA
CTATCAGCGTTGCATTACGTGGTGTCCGGTCGCTTCGTCTTGATTCGCTTGACGCTGCTG: 588 a.u.
CTATAGCAAATGTACAACGTGTGAAAGTAAAGATTCGTCTTGATTCGCTTGACGCTGCTG: 581 a.u.
TGTACGAAGCTATACATCATGAATATAGTAGTTAGGGTCTTGATTCGCTTGACGCTGCTG: 495 a.u.

Series 3 — method: aptamer microarray, sandwich; form: DNA with 2'F-ANA; medium: in vitro; concentration: 200 nM; together with: Cy3 exosite-II aptamer, 400 nM; reading: higher = stronger binding; quantity: mean fluorescence intensity
Target: Prothrombin, mature alpha-thrombin (F2, Homo sapiens, UniProt P00734)
Notes: whole 15-mer aptamer, many near background
GGTTGGTGTGGTTGG (2'F-ANA at 4 7 8 9 10 11 12): 129 a.u.
GGTTGGTGTGGTTGG (2'F-ANA at 1 6 9 13): 107 a.u.
GGTTGGTGTGGTTGG (2'F-ANA at 5 8 9 11 12 13 14): 48.5 a.u.

Further values, each from its own experiment
PhoQ, residues 284 288 289 292 302 303 AGHLVA  fold induction (PhoP, residues 12 14 15 18 19 QWHVF (Escherichia coli, UniProt P23836); Sort-seq, item: YFP reporter; E. coli; PhoQ-PhoP variant library, together with: 10 µM Mg2+; relative to: high Mg2+ state, higher = stronger signaling): 9.63

For quick reference, copied from above (series 1):
CTAATATTCATTTTATTCAAGTGCTAG: 0.887 z-score
